Experimental data from different studies.
Every numbered part comes from another study and shows a few of its results, in no order. Several values in a cell are separate wells, animals, samples, runs or records.
Chain of UniProt Q9HCP0 (whole entry, looked up): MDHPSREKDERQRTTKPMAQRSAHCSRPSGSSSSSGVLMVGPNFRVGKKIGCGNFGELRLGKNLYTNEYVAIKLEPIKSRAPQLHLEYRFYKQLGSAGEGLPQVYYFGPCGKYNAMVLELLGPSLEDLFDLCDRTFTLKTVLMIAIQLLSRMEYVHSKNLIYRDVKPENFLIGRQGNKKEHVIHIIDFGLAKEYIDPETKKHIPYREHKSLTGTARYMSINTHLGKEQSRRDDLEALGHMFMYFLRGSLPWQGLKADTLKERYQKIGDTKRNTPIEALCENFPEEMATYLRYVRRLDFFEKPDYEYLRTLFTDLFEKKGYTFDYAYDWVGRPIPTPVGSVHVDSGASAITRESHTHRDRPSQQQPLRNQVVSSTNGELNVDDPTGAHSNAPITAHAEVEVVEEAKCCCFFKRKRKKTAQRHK
Chain of UniProt P45983 (whole entry, looked up): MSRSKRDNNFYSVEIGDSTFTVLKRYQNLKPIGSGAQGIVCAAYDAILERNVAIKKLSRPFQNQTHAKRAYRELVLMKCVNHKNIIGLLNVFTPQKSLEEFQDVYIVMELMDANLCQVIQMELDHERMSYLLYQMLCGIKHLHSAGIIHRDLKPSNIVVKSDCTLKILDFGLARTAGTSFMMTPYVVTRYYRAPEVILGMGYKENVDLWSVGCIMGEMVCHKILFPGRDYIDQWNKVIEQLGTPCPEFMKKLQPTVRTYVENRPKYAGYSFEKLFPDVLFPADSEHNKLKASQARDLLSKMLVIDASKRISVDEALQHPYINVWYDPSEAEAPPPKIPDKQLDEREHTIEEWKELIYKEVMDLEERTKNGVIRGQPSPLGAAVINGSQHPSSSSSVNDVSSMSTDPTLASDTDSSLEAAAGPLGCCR
Chain of UniProt Q8TDX7 (whole entry, looked up): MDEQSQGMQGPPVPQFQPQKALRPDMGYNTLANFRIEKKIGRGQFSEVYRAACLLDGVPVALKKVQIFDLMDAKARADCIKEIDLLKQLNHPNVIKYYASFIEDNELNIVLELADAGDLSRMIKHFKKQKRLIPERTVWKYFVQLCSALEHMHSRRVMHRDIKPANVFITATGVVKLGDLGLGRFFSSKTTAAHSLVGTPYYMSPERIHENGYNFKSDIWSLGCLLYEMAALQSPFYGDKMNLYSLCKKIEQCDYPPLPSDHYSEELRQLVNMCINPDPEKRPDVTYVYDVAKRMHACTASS
Chain of UniProt Q96KB5 (whole entry, looked up): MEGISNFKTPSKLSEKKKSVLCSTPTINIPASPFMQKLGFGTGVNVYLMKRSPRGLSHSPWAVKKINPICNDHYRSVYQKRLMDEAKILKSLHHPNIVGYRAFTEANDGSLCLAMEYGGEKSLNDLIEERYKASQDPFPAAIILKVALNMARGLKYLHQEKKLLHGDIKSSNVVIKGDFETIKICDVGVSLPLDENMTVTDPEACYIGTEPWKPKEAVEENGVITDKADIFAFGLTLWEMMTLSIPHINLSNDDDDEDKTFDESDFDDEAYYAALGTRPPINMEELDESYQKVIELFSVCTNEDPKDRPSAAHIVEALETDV

Block 1
Compound: CN[C@@H]1C[C@H]2O[C@@](C)([C@@H]1OC)n1c3ccccc3c3c4c(c5c6ccccc6n2c5c31)C(=O)NC4
Effect on: enzyme activity
Mode: inhibitor
Tested at: 0.5 µM
Relative to: control
Measurement: remaining activity
NEK7 (Homo sapiens, UniProt Q8TDX7): 95.8% and 101%
PBK (Homo sapiens, UniProt Q96KB5): 27.8%
MAPK8 (Homo sapiens, UniProt P45983): 88.3% and 102%
CSNK1G1 (Homo sapiens, UniProt Q9HCP0): 91.4% and 103%

Block 2
Target: Cyclin-dependent kinase 2 homolog (CRK2, Plasmodium falciparum, UniProt P61075)
Chain of UniProt P61075 (whole entry, looked up): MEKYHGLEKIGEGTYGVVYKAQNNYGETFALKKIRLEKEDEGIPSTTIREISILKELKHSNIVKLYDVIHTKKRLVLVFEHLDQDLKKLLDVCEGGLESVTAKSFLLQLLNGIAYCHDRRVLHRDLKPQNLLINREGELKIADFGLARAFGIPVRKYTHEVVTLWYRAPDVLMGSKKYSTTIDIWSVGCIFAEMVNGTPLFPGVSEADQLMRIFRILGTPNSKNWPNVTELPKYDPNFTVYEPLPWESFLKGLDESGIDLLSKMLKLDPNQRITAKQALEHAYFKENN
Effect on: cell-free assay
Technique: competition with immobilised ligand
Tested at: 1 µM
Measurement: remaining binding
CN(C)C(=O)Cn1cc(-c2nc(C3(c4ccc(-c5cnc(N)nc5)cc4)CC3)no2)cn1: 100%
N#Cc1ccc(Nc2ccc3[nH]c(=O)[nH]c3c2)c(Cl)c1: 100%
CCS(=O)(=O)c1cc2cc(C[C@@](O)(CC(C)(C)c3ccc(F)cc3C(N)=O)C(F)(F)F)[nH]c2cn1: 100%

Block 3
Target: Eukaryotic initiation factor 4A-I (EIF4A1, Homo sapiens, UniProt P60842)
Chain of UniProt P60842 (whole entry, looked up): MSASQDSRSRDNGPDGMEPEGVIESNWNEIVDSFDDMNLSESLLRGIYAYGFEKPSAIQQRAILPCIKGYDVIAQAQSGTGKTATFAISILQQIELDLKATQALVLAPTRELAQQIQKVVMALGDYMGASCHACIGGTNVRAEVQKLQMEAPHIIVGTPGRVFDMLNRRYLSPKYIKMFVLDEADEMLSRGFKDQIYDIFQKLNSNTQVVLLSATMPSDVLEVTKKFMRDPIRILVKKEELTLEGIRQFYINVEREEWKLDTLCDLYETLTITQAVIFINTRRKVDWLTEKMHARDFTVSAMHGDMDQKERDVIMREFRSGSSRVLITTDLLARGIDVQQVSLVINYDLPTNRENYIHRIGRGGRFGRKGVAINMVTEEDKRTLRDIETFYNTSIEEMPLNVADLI
Effect on: RNA clamping
Technique: fluorescence polarization
Tested at: concentration not given
With: FAM-labelled poly r(AG)8 RNA
Reading: higher = more clamping
Measurement: fluorescence polarization change
COc1ccc([C@@]23Oc4cc(OC)cc(OC)c4[C@]2(O)c2nc(-c4ccccc4)[nH]c(=O)c2[C@H]3c2ccccc2)cc1: 17.3 mP
COc1ccc([C@@]23Oc4cc(OC)cc(OC)c4[C@]2(O)c2nc4n(c(=O)c2[C@@H]3c2ccccc2)CCC4)cc1: 39.8 mP
COC(=O)[C@@H]1[C@@H](O)[C@@]2(O)c3c(OC)cc(OC)cc3O[C@@]2(c2ccc(OC)cc2)[C@H]1c1ccccc1: 19.7 mP
COC(=O)[C@H]1[C@@H](c2ccccc2)C2(c3ccc(OC)cc3)Oc3cc(OC)cc(OC)c3[C@@]1(O)C2=O: 4.7 mP
COc1ccc([C@@]23Oc4cc(OC)cc(OC)c4[C@]2(O)c2nc(-c4ccccc4)n(C)c(=O)c2[C@H]3c2ccccc2)cc1: 40.3 mP
COc1ccc(-c2nc3c(c(=O)[nH]2)[C@H](c2ccccc2)[C@@]2(c4ccc(OC)cc4)Oc4cc(OC)cc(OC)c4[C@@]32O)cc1: 28.7 mP
CCCCC1=N[C@@]2(O)[C@H](C(=O)OC)[C@@H](c3ccccc3)[C@]3(c4ccc(OC)cc4)Oc4cc(OC)cc(OC)c4[C@]23N1: 67.9 mP

Further values, each from its own experiment
Target: Calcium/calmodulin-dependent protein kinase type II subunit alpha (CAMK2A, Homo sapiens, UniProt Q9UQM7)
Chain of UniProt Q9UQM7 (whole entry, looked up): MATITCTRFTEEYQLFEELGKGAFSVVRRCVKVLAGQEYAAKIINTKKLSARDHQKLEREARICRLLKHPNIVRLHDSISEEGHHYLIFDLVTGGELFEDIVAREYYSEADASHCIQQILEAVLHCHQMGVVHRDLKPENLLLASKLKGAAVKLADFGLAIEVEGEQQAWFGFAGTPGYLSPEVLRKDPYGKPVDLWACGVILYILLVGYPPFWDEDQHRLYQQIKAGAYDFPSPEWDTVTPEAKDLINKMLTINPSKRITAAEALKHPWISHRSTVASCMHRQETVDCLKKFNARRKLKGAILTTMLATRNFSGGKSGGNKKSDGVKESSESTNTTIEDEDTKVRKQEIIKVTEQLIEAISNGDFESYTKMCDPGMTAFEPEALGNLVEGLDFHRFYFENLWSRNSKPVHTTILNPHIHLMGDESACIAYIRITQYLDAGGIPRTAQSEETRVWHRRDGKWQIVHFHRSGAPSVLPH
Effect on: enzyme activity
Mode: inhibitor
Tested at: 10 µM
CC[C@H]1CN2CC[C@H]1C[C@@H]2[C@@H](O)c1ccnc2ccc(OC)cc12 — inhibition: 4%
CC(C)=CCC[C@](C)(O)[C@H]1CC[C@]2(C)[C@@H]1[C@H](O)C[C@@H]1[C@@]3(C)CC[C@H](O[C@@H]4O[C@H](CO)[C@@H](O)[C@H](O)[C@H]4O)C(C)(C)[C@@H]3CC[C@]12C — inhibition: -47%

Excerpt of the above (block 2):
N#Cc1ccc(Nc2ccc3[nH]c(=O)[nH]c3c2)c(Cl)c1: 100%
CCS(=O)(=O)c1cc2cc(C[C@@](O)(CC(C)(C)c3ccc(F)cc3C(N)=O)C(F)(F)F)[nH]c2cn1: 100%
